Measurements gathered from unrelated publications.
Protocols differ between the studies behind these lines. Several values in a cell are separate wells, animals, samples, runs or records. Numbers after ± are the reported error.

CC(C)C[C@H](NC(=O)[C@H](CCCCN)NC(=O)OCC1c2ccccc2-c2ccccc21)C(=O)N[C@H](C(=O)N[C@@H](Cc1ccccc1)C(=O)N[C@@H](Cc1ccccc1)C(=O)N[C@@H](CCCCN)C(=O)NCC(=O)N[C@@H](Cc1ccccc1)C(=O)N[C@@H](C)C(=O)N[C@@H](Cc1c[nH]c2ccccc12)C(=O)N[C@@H](CC(N)=O)C(=O)N[C@H](C(=O)N[C@H]1CSSC[C@@H](C(=O)N[C@@H](Cc2c[nH]cn2)C(=O)N[C@@H](CCCNC(=N)N)C(=O)N[C@@H](CCCNC(=N)N)C(=O)N[C@@H](C)C(=O)N[C@@H](CC(N)=O)C(N)=O)NC(=O)[C@H](C(C)C)NC(=O)[C@H](CCCNC(=N)N)NC(=O)[C@H](C(C)C)NC(=O)CNC(=O)[C@H](CC(N)=O)NC(=O)[C@H](CCCNC(=N)N)NC(=O)[C@H](Cc2ccc(O)cc2)NC(=O)[C@H](C(C)C)NC1=O)C(C)C)C(C)C gave a globulin of 18.89 ± 0.17 g/L (ICR mice, serum; intraperitoneal, 10 mg/kg, day 5).
Nc1nc2cc(-c3ccc4ncc(C(=O)N5CCOCC5)n4c3)ccc2o1: “grade ≥3 drug-related AEs” 25% (advanced solid tumour patients; dose not given, once-daily dosing; relative to: patients).
For CC(=O)c1c(C)c2cnc(Nc3ccc(C4CCN(CCS(C)(=O)=O)CC4)cn3)nc2n(C2CCCC2)c1=O, “patients with Neutropenia” read 65.4% (HR+/HER2- advanced breast cancer patients; oral, dose not given, grade 3/4,, total).
O=S(=O)(Nc1ccccc1)c1ccc(NC(=S)Nc2ccccc2)cc1 — result for “blood cell fraction”: 4.24% (measured: MO%; female mouse, blood; oral, 5 mg/kg daily, 14 days).
The AUCtau of COc1ccc(F)cc1C(=O)NCc1ccc(-c2nn([C@@H](C)C(F)(F)F)c(N)c2C(N)=O)cc1 is reported as 116 µg·h/mL (human, plasma; oral, 200 mg once daily, together with: intravenous midazolam).
COC[C@]12CN(C)[C@@H]3[C@@H]4[C@H](OC)[C@H]1[C@@]3([C@@H](OC)C[C@H]2O)[C@@H]1C[C@@]2(O)[C@H](OC(=O)c3ccccc3)[C@@H]1[C@]4(OC(C)=O)[C@@H](O)[C@@H]2OC has an MRT(0-t) of 2.67 ± 0.245 h (Sprague-Dawley rat, plasma; oral, dose not given, with NADES in PCW extract).
For CCNCCCNC/C=C\CNCCCNCC, “serious TEAE, dyspnoea” read 15.2% (human, advanced solid tumours; intravenous, dose not given; relative to: patients).
N[C@@H]1c2ccccc2OC12CCN(c1cnc3c(N4CCCc5ncccc54)n[nH]c3n1)CC2: “TEAE leading to interruption” 40% (advanced metastatic solid tumour patients; oral, 60 mg once daily).
Nc1ncnc2c1ncn2[C@@H]1O[C@@H]2COP(=O)([S-])O[C@@H]3[C@H](O)[C@@H](COP([O-])(=S)O[C@H]2[C@H]1O)O[C@H]3n1cnc2c(N)ncnc21.[Na+].[Na+] (stereo partly drawn) gave a basophil percentage of 0.2 ± 0.18% (non-tumor-bearing mice, blood; intravenous, 1 mg/kg, toxicity study).
Under “adverse event incidence”, [O-][S+]1CCc2nc(N3CCC(c4ncc(Cl)cn4)CC3)nc(NC3(CO)CCC3)c21 (stereo not drawn) is recorded as 0% (measured: Dizziness; healthy male humans; 12 mg twice daily).
CC(C)n1c(C2CCNCC2)nc2c([N+](=O)[O-])c(Br)c(Br)cc21 — result for “grade ≥3 adverse events”: 12% (measured: Sepsis; AML patients; dose not given, all doses).
C1=Cc2nc1cc1ccc([n-]1)c(C1CC1)c1nc(cc3ccc([n-]3)c2C2CC2)C=C1.CC(=O)[O-].[Mn+3]: “mean plasma concentration” 259 ng/mL (LC-MS/MS; Sprague-Dawley rat, plasma; oral gavage, dose not given, 360 min).
O=C(O)CCCOc1ccc(F)cc1-c1cc(-c2ccccc2C(F)(F)F)n(-c2ccccc2)n1 gave an organ weight of 17 ± 1.8 mg (measured: thyroid; Crl:CD(SD) rats, female; iv, 25 µg/kg, 1 day).
For CN1CC[C@@H](c2c(O)cc(O)c3c(=O)cc(-c4ccc(C(F)(F)F)cc4Cl)oc23)[C@@H]1CO, “patients with adverse event” read 0% (measured: Lymphopenia; relapsed B-cell malignancies or AML; oral, 100 mg, grade 3-4, continuous dosing).
For CN(C)C1(CNC(=O)c2ccc3c(c2)CCN3C(=O)c2ccccc2)CCOCC1, “unbound plasma concentration” read 153 nM (C57BL/6 mice, male, plasma; intraperitoneal, 50 mg/kg, 120 min).
CC(C)c1cccc(N=Nc2ccc3[nH]cc(CCN(C)C)c3c2)c1: “cis isomer at photostationary state” 81% (light irradiation; solution; together with: light 385 nm).
With O=C(O)CCS(=O)(=O)O the plasma concentration was 362 ng/mL (human; oral, 265 mg twice daily, 8 h post-dose, week 65).
CC1(C)[C@H](C(=O)O[C@H](C#N)c2cccc(Oc3ccccc3)c2)[C@@H]1C=C(Br)Br — result for “enzyme contribution to clearance”: 0.4% (measured: CYP2B6; human, age 1 year, recombinant human CYP2B6; 0.1 µM).
With Cn1ncc(-c2nc(N[C@H]3CC[C@H](N)CC3)ncc2Cl)c1CC1CC1 the Cmax was 18 ng/mL (HPLC-MS/MS; patients, plasma; oral, 8 mg, day 1).
The Fatigue incidence of CCN1[C@@H](C(=O)NC23CCC(C(=O)O)(CC2)CC3)[C@H](c2cccc(Cl)c2F)[C@]2(C(=O)Nc3cc(Cl)ccc32)C12CCCCC2 is reported as 9.1% (patients with advanced solid tumours; oral, 100 mg).
For Cn1c(-c2ccc(C(N)=O)cc2F)nnc1C(C)(C)Oc1c(F)cc(Cl)cc1F, “general disorder TEAE” read 33.3% (human; oral, 30 mg, single ascending dose, incl. administration site).
CC(C)CC(=O)OC[C@H]1O[C@@](C#N)(c2ccc3c(N)ncnn23)[C@H](O)[C@@H]1O gave a fraction unbound of 0.278 (dog plasma; 9 µM).
For O=c1cc(-c2ccc(O)c(O)c2)oc2cc(O)cc(O)c12, “urinary excreted amount, total” read 29.1 ± 6.67 ng (male Sprague-Dawley rat, obese; oral, 100 mg/kg of neohesperidin, 12 to 24 h, after β-glucuronidase/sulfatase hydrolysis).
CC[C@H](C)CCCCC(=O)N[C@@H](CCN)C(=O)N[C@H](C(=O)N[C@@H](CCN)C(=O)N[C@H]1CCNC(=O)[C@H]([C@@H](C)O)NC(=O)[C@H](CCN)NC(=O)[C@H](CCN)NC(=O)[C@H](CC(C)C)NC(=O)[C@@H](Cc2ccccc2)NC(=O)[C@H](CCN)NC1=O)[C@@H](C)O: “concentration at steady state” 1900 ng/mL (critically ill non-survivors, plasma; intravenous, 2.2 mg/kg/day, 6 h, median).
For COc1ccc(-c2c(-c3ccc(C#N)c(F)c3)nc(N3CCC(N)CC3)n(C)c2=O)cc1F, “serious adverse event incidence” read 0% (measured: Metastasis; human patients; oral, 60 mg, dose expansion).
For Brc1ccc(Oc2cc(Br)c(Br)cc2Br)c(Br)c1, “milk fat partition ratio” read 198 (cow whole milk; 20 nM; relative to: milk fat over skim milk).
CN[C@@H](C)C(=O)N[C@H]1CN(S(=O)(=O)c2cccc(S(=O)(=O)N3CC[C@H]4CC[C@@H](C(=O)NC(c5ccccc5)c5ccccc5)N4C(=O)[C@@H](NC(=O)[C@H](C)NC)C3)c2)CC[C@H]2CC[C@@H](C(=O)NC(c3ccccc3)c3ccccc3)N2C1=O: “treatment-related AST elevation incidence” 0% (patients with advanced solid tumours; 0.6 mg, phase I monotherapy).
Under “change in Alert-Drowsy score”, O=C(Nc1ccccc1)C1CCN(C(=O)Oc2cccnc2)CC1 is recorded as -2.2 (Bond-Lader VAS; healthy women; 20 mg; relative to: pre-dose baseline, direction not given).
For CC(C)(O)c1cc(Nc2cc(Oc3cn(C4CC4)nc3C3CCOCC3)ccn2)ccn1, “treatment-emergent adverse events” read 8% (Cough; advanced cancer patients, grade 4 glioma expansion; oral, 50 mg twice daily, all causality any grade).
Under “treatment-emergent adverse events”, COc1cc(N2CCC(N3CCN(C)CC3)CC2)ccc1Nc1ncnc(Nc2ccccc2S(=O)(=O)C(C)C)n1 is recorded as 6 number (percent) (measured: Constipation; Japanese patients with solid tumours; oral, dose not given, all grades).
The TRAE incidence of CO[C@H]1C[C@@H]2CC[C@@H](C)[C@@](O)(O2)C(=O)C(=O)N2CCCC[C@H]2C(=O)O[C@H]([C@H](C)C[C@@H]2CC[C@@H](OC(=O)NCCOCCOCCOCCOCCOCCOCCOCCOCCC(=O)N3CCc4cc(Cn5nc(-c6ccc7oc(N)nc7c6)c6c(N)ncnc65)ccc4C3)[C@H](OC)C2)C[C@@H](O)[C@H](C)/C=C(\C)[C@@H](O)[C@@H](OC)C(=O)[C@H](C)C[C@H](C)/C=C/C=C/C=C/1C is reported as 18.8% (phase 1 dose escalation, measured: rash; advanced solid tumour patients; intravenous, 8 mg weekly, any grade).
C[C@@H](NC(=O)N1C(=O)[C@H](Cc2ccnc(N)c2)[C@H]1C(=O)O)C1CCCCC1: “incidence of moderate AEs” 0% (healthy adult Chinese volunteers; continuous intravenous infusion, 0.3 mg/kg/h, 5-day infusion, CTCAE 5.0 grading).
For COc1cc2c(Oc3ccc4[nH]c(C)cc4c3F)ccnc2cc1OCC1(N)CC1, “grade 1 or 2 sinus arrhythmia” read 0% (paediatric recurrent refractory sarcoma; 10 mg).
COc1ccc2nc3cc(Cl)ccc3c(Nc3cc(CN4CCCC4)c(O)c(CN4CCCC4)c3)c2n1 gave a creatinine level of 24 µmol/L (mouse, blood; intraperitoneal, 14 mg/kg).
CCCCCCC#Cc1cncc(-c2nnc(SCc3cc([N+](=O)[O-])cc([N+](=O)[O-])c3)n2C)c1 has a t1/2 of over 8 h (mouse plasma; plasma stability).
C[C@]1(CO)Cc2ncn(-c3ccc(C#N)c(Cl)c3)c2C(=O)O1: “subjects with drug-related hyperhidrosis” 11.1% (human; 20 mg multiple doses, fasted).
CC[C@H](C)[C@H](NC(=O)[C@H](Cc1ccccc1)NC(=O)[C@H](CCC(=O)O)NC(=O)[C@H](CCCNC(=N)N)NC(=O)[C@H](C)NC(=O)[C@H](C)NC(=O)[C@H](CCC(N)=O)NC(=O)[C@H](CCC(=O)O)NC(=O)[C@H](CCC(=O)O)NC(=O)[C@H](CC(C)C)NC(=O)[C@H](Cc1ccc(O)cc1)NC(=O)[C@H](CO)NC(=O)[C@H](CO)NC(=O)[C@@H](NC(=O)[C@H](CC(=O)O)NC(=O)[C@H](CO)NC(=O)[C@@H](NC(=O)[C@H](Cc1ccccc1)NC(=O)[C@@H](NC(=O)CNC(=O)[C@H](CCC(=O)O)NC(=O)[C@H](C)NC(=O)CCc1cnc[nH]1)[C@@H](C)O)[C@@H](C)O)C(C)C)C(=O)N[C@@H](C)C(=O)N[C@@H](Cc1c[nH]c2ccccc12)C(=O)N[C@@H](CC(C)C)C(=O)N[C@H](C(=O)N[C@@H](CCCNC(=N)N)C(=O)NCC(=O)N[C@@H](CCCNC(=N)N)C(=O)N[C@@H](CCCCNC(=O)COCCOCCNC(=O)COCCOCCNC(=O)CC[C@H](NC(=O)CCCCCCCCCCCCCCCCC(=O)O)C(=O)O)C(=O)NCC(=O)NCC(=O)N[C@@H](CO)C(=O)N[C@@H](CCSC)C(=O)N[C@H](C(=O)N[C@@H](CCCCNc1c(NCCCCCN(O)C(=O)CCC(=O)NCCCCCN(O)C(=O)CCC(=O)NCCCCCN(O)C(C)=O)c(=O)c1=O)C(=O)O)C(C)C)C(C)C [zirconium-89 labelled] has a tissue uptake of 0.119 %ID/g (ex vivo gamma counting; male Sprague-Dawley rats, pancreas; intravenous, 1 nmol, 72 h, mean of 3 animals).
COc1cccc(Oc2ccccc2NC(=O)CNC(=O)c2cccc3ccccc23)c1 has a serum albumin of 3 g/dL and 3.1 g/dL (esterase-deficient SCID mice, male; oral, 100 mg/kg/day, 14 days, toxicity study).
CCc1ccc(CC/C=C/c2ccc3c(c2)C(=O)CC3)cc1 has a Neutrophil percentage of 13.9% (Sprague-Dawley rat, female; oral, 120 mg/kg/day, 14 days).

Some of these lines once more:
CC1(C)[C@H](C(=O)O[C@H](C#N)c2cccc(Oc3ccccc3)c2)[C@@H]1C=C(Br)Br — result for “enzyme contribution to clearance”: 0.4% (measured: CYP2B6; human, age 1 year, recombinant human CYP2B6; 0.1 µM).
With Cn1ncc(-c2nc(N[C@H]3CC[C@H](N)CC3)ncc2Cl)c1CC1CC1 the Cmax was 18 ng/mL (HPLC-MS/MS; patients, plasma; oral, 8 mg, day 1).
The Fatigue incidence of CCN1[C@@H](C(=O)NC23CCC(C(=O)O)(CC2)CC3)[C@H](c2cccc(Cl)c2F)[C@]2(C(=O)Nc3cc(Cl)ccc32)C12CCCCC2 is reported as 9.1% (patients with advanced solid tumours; oral, 100 mg).
For Cn1c(-c2ccc(C(N)=O)cc2F)nnc1C(C)(C)Oc1c(F)cc(Cl)cc1F, “general disorder TEAE” read 33.3% (human; oral, 30 mg, single ascending dose, incl. administration site).
